Experimental data from different studies.
Parts stem from different laboratories: compare values within a part only.
Chain of UniProt Q2M2I8 (whole entry, looked up): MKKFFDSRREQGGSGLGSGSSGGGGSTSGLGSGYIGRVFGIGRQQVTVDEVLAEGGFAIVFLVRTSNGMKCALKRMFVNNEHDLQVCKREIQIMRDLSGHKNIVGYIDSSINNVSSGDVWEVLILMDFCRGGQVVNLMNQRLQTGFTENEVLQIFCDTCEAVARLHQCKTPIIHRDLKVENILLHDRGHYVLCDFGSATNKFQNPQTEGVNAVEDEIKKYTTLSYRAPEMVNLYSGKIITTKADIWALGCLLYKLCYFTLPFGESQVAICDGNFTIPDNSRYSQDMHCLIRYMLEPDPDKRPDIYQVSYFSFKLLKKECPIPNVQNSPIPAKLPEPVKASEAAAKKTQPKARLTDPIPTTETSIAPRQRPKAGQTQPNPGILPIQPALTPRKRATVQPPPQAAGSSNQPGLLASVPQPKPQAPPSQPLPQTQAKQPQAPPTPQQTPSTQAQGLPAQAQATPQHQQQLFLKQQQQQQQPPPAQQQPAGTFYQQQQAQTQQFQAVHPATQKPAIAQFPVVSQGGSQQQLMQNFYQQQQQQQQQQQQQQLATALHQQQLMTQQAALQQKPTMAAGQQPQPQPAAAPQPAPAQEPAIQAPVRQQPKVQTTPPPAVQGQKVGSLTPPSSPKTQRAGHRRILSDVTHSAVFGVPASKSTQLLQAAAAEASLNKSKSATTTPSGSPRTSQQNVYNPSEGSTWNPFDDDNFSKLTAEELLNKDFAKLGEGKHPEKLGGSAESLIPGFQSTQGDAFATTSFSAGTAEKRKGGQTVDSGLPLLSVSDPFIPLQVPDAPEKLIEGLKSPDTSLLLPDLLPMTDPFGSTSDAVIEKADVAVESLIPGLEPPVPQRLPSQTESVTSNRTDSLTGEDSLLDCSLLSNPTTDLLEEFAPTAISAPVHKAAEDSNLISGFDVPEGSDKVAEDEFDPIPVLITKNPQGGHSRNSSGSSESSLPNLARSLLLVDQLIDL

Set 1
Cell line: HaCaT
Concentration: 100 µM
Time: 36 h
| Structure (SMILES) | viability |
| --- | --- |
| O=C1CCCC(=O)C1C(=O)c1ccc(C(F)(F)F)cc1[N+](=O)[O-] | 98.1% |
| COc1cc(Nc2c(C#N)cnc3cc(OCCCN4CCN(C)CC4)c(OC)cc23)c(Cl)cc1Cl | 110% |
| CCc1c(C)[nH]c2c1C(=O)C(CN1CCOCC1)CC2 (centres unmarked) | 86.7% |
| CCCc1nc(C)c2c(=O)[nH]c(-c3cc(S(=O)(=O)N4CCN(CC)CC4)ccc3OCC)nn12 | 25.2% |
| CC[C@H](C)C(=O)O[C@H]1C[C@@H](C)C=C2C=C[C@H](C)[C@H](CC[C@@H]3C[C@@H](O)CC(=O)O3)[C@H]21 | 18.5% |
| CC(C)=CCC/C(C)=C/CC/C(C)=C/CC/C(C)=C/CC1=C(C)C(=O)c2ccccc2C1=O | 74.3% |
| O=c1c(-c2ccc(O[C@@H]3O[C@H](CO)[C@@H](O)[C@H](O)[C@H]3O)cc2)coc2cc(O)cc(O)c12 | 8.77% |
| CCC[C@@H]1C[C@@H](C(=O)N[C@@H]([C@H]2O[C@H](SC)[C@H](OP(=O)(O)O)[C@@H](O)[C@H]2O)[C@H](C)Cl)N(C)C1 | 90% |
| COc1cc2c(N3CCN(C(=O)Nc4ccc(OC(C)C)cc4)CC3)ncnc2cc1OCCCN1CCCCC1 | 5.79% |
| COc1cc(C(=O)N2CCOCC2)cc(OC)c1OC | 84% |
| Cc1c(C(=O)Nc2ccc(N3C[C@@H](C)O[C@@H](C)C3)nc2)cccc1-c1ccc(OC(F)(F)F)cc1 | 16.5% |

Set 2
Target: Calcium/calmodulin-dependent protein kinase type II subunit alpha (CAMK2A, Homo sapiens, UniProt Q9UQM7)
Chain of UniProt Q9UQM7 (whole entry, looked up): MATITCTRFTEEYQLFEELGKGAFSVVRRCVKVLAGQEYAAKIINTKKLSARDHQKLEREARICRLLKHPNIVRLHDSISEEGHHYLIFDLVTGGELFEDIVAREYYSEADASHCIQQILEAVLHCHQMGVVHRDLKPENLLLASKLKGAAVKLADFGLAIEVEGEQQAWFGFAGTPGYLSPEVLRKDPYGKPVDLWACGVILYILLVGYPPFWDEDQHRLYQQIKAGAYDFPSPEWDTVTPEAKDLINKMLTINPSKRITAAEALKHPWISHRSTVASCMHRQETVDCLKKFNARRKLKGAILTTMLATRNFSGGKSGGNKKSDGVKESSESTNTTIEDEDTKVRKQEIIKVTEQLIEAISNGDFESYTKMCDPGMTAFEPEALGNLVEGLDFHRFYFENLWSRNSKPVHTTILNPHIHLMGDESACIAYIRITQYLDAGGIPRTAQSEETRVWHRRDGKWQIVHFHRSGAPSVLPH
Observed: enzyme activity
Mode: inhibitor
Concentration: 10 µM
| SMILES | inhibition [%] |
| --- | --- |
| C[C@@H](N[C@H]1CCN(c2ccc(CC(=O)O)cc2)C1)c1cccc2ccccc12 | -4 |
| CC(=O)OCC(=O)[C@@]1(OC(C)=O)[C@@H](C)C[C@H]2[C@@H]3C[C@H](F)C4=CC(=O)C=C[C@]4(C)[C@@]3(F)[C@@H](O)C[C@@]21C | 7 |
| COc1cc2c(O)c3c(c(-c4ccc5c(c4)OCO5)c2cc1OC)C(=O)OC3 | -27 |
| CCCCC[C@](C)(O)/C=C/[C@@H]1[C@@H](C/C=C\CCCC(=O)O)[C@@H](O)C[C@H]1O | 1 |
| C/C=C(/C(=C/C)c1ccc(O)cc1)c1ccc(O)cc1 | 2 |
| C[C@H]1CO[C@@H]2Cn3cc(C(=O)NCc4ccc(F)cc4F)c(=O)c(O)c3C(=O)N12 | 3 |
| COc1c(C=O)c(O)cc2c1C(=O)c1ccccc1C2=O | -8 |
| CC[C@H]1NC(=O)[C@@H](NC(=O)c2ncccc2O)[C@@H](C)OC(=O)[C@H](c2ccccc2)NC(=O)[C@@H]2CC(=O)CCN2C(=O)[C@H](Cc2ccc(N(C)C)cc2)N(C)C(=O)[C@@H]2CCCN2C1=O | 20 |
| C=C1C(=O)[C@]23[C@H](O)[C@H]1CC[C@H]2[C@@]12CO[C@]3(O)[C@@H](O)[C@@H]1C(C)(C)CC[C@@H]2O | -12 |

Set 3
Cell line: Huh-7
Concentration: 10 µM
Time: 24 h
| SMILES | viability [%] |
| --- | --- |
| CN1CCC(=C2c3ccccc3CCc3sccc32)CC1 | 94.8 |
| O=C(CCCN1CCN(c2ccccn2)CC1)c1ccc(F)cc1 | 97 |
| Nc1ccc(/N=N/c2ccccc2)c(N)n1 | 96.5 |
| O=C(C1CCCCC1)N1CC(=O)N2CCc3ccccc3C2C1 (centres unmarked) | 101 |
| Cc1ccc(N(CC2=NCCN2)c2cccc(O)c2)cc1 | 102 |
| Cn1c(=O)c2[nH]cnc2n(C)c1=O | 95.2 |
| Cc1c(N(C)CS(=O)(=O)O)c(=O)n(-c2ccccc2)n1C | 100 |
| CC(C)[C@H]1CC[C@H](C(=O)N[C@H](Cc2ccccc2)C(=O)O)CC1 | 101 |
| CCCCNC(=O)NS(=O)(=O)c1ccc(C)cc1 | 98.8 |
| O=C(O)CCC(=O)OC[C@@H](NC(=O)C(Cl)Cl)[C@H](O)c1ccc([N+](=O)[O-])cc1 | 97.9 |
| COc1cc(NS(=O)(=O)c2ccc(N)cc2)nc(OC)n1 | 98.8 |

Further values, each from its own experiment
| SMILES | target | test | setting | how to read | quantity | value |
| --- | --- | --- | --- | --- | --- | --- |
| CCC(=NO)C(C)=Cc1ccc(F)c(C)c1 | AP2-associated protein kinase 1 (AAK1, Homo sapiens, UniProt Q2M2I8) | KINOMEscan | 1 µM | baseline: control | remaining binding | 98% |
